{"data": "Assay results collected from several papers", "note": "Each numbered part is a random draw from the data of one study; scales do not carry over between parts. Several values in a cell are separate wells, animals, samples, runs or records.", "sequence of UniProt Q13237 (whole entry, looked up)": "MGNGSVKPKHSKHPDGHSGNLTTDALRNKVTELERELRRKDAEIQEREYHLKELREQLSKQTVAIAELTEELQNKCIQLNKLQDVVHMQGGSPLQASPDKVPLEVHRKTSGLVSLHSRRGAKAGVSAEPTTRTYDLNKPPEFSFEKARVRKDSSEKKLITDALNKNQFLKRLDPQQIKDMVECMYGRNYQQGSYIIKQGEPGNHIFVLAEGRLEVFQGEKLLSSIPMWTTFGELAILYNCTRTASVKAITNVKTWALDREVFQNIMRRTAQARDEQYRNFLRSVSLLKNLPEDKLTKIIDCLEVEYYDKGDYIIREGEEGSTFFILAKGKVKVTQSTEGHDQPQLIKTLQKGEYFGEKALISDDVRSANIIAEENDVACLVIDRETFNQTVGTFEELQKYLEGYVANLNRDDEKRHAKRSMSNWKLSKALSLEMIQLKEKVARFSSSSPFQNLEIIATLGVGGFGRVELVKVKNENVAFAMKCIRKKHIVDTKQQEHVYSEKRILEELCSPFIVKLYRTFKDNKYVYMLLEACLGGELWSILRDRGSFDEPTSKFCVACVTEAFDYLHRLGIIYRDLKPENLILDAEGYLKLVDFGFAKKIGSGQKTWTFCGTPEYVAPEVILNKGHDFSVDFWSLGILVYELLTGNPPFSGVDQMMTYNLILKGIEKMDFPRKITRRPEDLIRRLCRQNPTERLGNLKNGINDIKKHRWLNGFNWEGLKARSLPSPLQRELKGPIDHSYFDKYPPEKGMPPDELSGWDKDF", "sequence of UniProt Q9H2X6 (whole entry, looked up)": "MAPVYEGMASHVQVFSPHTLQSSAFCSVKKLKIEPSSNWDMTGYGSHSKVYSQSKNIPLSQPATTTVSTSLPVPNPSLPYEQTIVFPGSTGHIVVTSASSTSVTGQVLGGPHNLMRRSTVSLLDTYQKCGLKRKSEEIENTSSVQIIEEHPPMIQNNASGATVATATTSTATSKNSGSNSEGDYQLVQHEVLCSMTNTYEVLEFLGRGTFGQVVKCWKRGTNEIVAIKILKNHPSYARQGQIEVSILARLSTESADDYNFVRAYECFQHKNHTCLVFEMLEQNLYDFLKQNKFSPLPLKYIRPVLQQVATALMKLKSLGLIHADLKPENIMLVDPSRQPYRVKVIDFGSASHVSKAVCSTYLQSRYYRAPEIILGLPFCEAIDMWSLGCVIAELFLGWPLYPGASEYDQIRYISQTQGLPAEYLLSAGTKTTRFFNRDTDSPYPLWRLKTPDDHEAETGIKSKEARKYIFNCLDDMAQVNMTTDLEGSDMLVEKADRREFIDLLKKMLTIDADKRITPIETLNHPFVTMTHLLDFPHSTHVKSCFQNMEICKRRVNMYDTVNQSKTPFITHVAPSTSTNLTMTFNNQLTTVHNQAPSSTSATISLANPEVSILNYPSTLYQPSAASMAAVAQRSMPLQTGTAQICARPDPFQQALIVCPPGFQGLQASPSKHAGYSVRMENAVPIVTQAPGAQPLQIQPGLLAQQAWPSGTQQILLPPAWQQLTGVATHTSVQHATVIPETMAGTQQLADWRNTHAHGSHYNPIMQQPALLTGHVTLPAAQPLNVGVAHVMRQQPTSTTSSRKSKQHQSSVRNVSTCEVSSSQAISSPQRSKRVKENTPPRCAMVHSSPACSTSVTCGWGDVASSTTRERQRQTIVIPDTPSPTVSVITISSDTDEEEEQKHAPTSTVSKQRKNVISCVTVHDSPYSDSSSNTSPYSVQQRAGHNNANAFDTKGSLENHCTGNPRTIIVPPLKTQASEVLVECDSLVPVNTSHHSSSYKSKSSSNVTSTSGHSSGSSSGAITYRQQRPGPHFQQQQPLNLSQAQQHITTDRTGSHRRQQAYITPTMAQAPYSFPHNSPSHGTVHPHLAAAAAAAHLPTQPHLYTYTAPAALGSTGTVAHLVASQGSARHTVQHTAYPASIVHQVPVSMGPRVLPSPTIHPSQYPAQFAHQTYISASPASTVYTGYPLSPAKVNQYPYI", "sequence of UniProt Q9H3Y6 (whole entry, looked up)": "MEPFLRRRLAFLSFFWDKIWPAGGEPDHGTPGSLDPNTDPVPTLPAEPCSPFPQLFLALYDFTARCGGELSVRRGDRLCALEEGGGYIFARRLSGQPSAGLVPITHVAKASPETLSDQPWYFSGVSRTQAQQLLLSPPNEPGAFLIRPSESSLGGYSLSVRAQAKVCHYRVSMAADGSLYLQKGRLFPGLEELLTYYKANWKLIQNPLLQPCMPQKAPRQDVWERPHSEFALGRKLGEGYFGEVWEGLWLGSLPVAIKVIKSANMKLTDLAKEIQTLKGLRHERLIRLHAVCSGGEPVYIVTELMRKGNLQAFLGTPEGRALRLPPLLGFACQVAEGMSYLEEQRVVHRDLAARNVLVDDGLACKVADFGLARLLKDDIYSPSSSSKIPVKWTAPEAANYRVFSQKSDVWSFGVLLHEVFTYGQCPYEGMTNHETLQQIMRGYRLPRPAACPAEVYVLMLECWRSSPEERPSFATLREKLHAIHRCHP"}
{"data": "Series 1", "target": "DNA polymerase theta, ATPase domain (POLQ, Homo sapiens, UniProt O75417)", "effect on": "enzyme activity", "action": "inhibitor", "concentration": "77 µM", "reference": "untreated", "sequence of UniProt O75417 (whole entry, unmodified, looked up)": "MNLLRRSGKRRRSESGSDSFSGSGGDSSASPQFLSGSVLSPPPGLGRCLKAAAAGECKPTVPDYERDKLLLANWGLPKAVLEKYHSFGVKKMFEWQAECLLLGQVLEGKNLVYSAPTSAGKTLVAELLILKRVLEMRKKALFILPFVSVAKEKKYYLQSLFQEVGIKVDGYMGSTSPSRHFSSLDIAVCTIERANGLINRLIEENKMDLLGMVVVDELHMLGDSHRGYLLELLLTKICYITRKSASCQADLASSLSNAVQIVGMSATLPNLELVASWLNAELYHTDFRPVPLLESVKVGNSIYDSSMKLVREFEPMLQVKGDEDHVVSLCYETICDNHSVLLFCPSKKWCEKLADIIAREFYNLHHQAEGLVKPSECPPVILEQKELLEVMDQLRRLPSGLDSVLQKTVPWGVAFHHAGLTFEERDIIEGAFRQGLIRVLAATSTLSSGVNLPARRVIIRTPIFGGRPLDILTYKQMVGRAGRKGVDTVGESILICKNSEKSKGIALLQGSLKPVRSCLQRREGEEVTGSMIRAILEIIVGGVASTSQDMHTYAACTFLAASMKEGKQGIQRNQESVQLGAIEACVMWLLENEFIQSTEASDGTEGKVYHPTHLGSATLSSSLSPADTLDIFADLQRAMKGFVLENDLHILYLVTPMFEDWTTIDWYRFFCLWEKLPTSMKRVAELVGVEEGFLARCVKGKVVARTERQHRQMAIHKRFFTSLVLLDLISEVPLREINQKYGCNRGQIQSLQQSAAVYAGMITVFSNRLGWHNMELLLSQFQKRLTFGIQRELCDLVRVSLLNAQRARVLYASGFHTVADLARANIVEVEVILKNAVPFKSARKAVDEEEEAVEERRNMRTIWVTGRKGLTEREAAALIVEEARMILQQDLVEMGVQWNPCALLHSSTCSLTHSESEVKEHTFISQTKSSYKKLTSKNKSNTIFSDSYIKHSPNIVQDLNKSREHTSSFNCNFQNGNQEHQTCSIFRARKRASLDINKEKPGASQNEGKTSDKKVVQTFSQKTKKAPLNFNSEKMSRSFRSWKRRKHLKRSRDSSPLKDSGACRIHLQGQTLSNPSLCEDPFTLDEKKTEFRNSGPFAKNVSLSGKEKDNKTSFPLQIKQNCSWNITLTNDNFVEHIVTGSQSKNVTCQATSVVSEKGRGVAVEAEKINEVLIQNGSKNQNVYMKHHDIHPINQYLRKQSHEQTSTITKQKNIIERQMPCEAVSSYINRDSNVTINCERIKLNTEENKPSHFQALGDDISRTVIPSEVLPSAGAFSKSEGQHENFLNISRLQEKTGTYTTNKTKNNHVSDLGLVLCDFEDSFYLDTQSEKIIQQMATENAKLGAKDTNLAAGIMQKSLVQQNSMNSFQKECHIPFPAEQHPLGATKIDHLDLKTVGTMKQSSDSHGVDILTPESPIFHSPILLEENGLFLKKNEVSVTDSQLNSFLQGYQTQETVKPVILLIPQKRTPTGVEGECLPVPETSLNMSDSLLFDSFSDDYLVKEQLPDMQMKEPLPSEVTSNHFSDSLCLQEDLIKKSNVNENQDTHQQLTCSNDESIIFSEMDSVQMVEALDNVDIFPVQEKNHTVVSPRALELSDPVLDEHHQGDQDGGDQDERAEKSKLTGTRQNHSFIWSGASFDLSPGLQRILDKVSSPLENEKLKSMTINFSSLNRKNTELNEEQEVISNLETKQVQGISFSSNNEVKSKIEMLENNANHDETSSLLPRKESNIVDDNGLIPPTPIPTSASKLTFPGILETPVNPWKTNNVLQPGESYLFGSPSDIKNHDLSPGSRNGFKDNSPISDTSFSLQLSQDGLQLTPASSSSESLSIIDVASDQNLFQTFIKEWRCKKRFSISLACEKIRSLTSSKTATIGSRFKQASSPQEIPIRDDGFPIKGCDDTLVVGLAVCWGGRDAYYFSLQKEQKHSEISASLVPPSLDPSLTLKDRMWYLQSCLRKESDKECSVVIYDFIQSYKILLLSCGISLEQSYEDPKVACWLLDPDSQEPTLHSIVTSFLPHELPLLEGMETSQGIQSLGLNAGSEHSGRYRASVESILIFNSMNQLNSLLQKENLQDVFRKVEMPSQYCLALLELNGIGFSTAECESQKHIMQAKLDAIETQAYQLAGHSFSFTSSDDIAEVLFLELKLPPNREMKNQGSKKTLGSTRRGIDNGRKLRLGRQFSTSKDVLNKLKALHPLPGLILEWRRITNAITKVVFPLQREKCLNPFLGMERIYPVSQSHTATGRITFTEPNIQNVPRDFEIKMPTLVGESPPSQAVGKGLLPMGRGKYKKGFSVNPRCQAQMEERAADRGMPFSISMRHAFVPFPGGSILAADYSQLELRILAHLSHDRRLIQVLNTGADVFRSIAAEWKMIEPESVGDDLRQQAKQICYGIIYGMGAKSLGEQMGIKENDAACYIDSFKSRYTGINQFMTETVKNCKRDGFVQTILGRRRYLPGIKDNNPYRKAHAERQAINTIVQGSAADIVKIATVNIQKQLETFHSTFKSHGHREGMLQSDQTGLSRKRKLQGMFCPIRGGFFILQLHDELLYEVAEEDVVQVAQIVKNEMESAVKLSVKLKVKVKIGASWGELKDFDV"}
{"Structure (SMILES)": "CC[C@H](C)C(=O)O[C@H]1C[C@H](O)C=C2C=C[C@H](C)[C@H](CC[C@@H](O)C[C@@H](O)CC(=O)O)[C@H]21", "remaining activity [%]": 95.7}
{"Structure (SMILES)": "Nn1nnc2ccccc21", "remaining activity [%]": 101}
{"Structure (SMILES)": "O=C(NOCC(O)CO)c1cc(Br)c(F)c(F)c1Nc1ccc(I)cc1F (stereo not shown)", "remaining activity [%]": 85.7}
{"data": "Series 2", "organism": "Sarcocystis neurona", "effect on": "parasite growth", "concentration": "concentration not given", "notes": "first screen", "reference": "untreated"}
{"Compound": "CCC(C)(C)N=C(NC#N)Nc1cccnc1", "log2 fold change": 0.1}
{"Compound": "C#C[C@]1(O)CC[C@H]2[C@@H]3CCC4=CC(=O)CC[C@@H]4[C@H]3CC[C@@]21C", "log2 fold change": 0.04}
{"Compound": "CC[C@@H](CO)NCCN[C@@H](CC)CO", "log2 fold change": -0.02}
{"Compound": "C[C@]12C=CC(=O)C=C1CC[C@@H]1[C@@H]2[C@@H](O)C[C@@]2(C)[C@H]1CC[C@]2(O)C(=O)COC(=O)CCC(=O)[O-].[Na+]", "log2 fold change": 0.0373}
{"data": "Series 3", "Compound": "O=C(N[C@H]1CCCCC/C=C\\C2C[C@@]2(C(=O)O)NC(=O)[C@@H]2C[C@@H](Oc3ccncc3)CN2C1=O)OC1CCCC1 (stereo partly shown)", "method": "competition with immobilised ligand", "concentration": "1 µM"}
{"target": "Epidermal growth factor receptor (EGFR, Homo sapiens, UniProt P00533, G719S)", "test": "cell-free assay", "remaining binding [%]": 63}
{"target": "Serine/threonine-protein kinase TAO1 (TAOK1, Homo sapiens, UniProt Q7L7X3)", "test": "binding", "remaining binding [%]": 100}
{"target": "Tyrosine-protein kinase ABL1, non-phosphorylated (ABL1, Homo sapiens, UniProt P00519, T315I)", "test": "binding", "remaining binding [%]": 100}
{"target": "Epidermal growth factor receptor (EGFR, Homo sapiens, UniProt P00533, del752-759)", "test": "cell-free assay", "remaining binding [%]": 49}
{"target": "Mast/stem cell growth factor receptor Kit (KIT, Homo sapiens, UniProt P10721, A829P)", "test": "binding", "remaining binding [%]": 98}
{"target": "Tyrosine-protein kinase Srms (SRMS, Homo sapiens, UniProt Q9H3Y6)", "test": "cell-free assay", "remaining binding [%]": 100}
{"target": "Interleukin-1 receptor-associated kinase 1 (IRAK1, Homo sapiens, UniProt P51617)", "test": "binding", "remaining binding [%]": 88}
{"target": "Dual specificity mitogen-activated protein kinase kinase 7 (MAP2K7, Homo sapiens, UniProt O14733)", "test": "binding", "remaining binding [%]": 91}
{"target": "Homeodomain-interacting protein kinase 2 (HIPK2, Homo sapiens, UniProt Q9H2X6)", "test": "binding", "remaining binding [%]": 100}
{"target": "Mitogen-activated protein kinase kinase kinase 19 (MAP3K19, Homo sapiens, UniProt Q56UN5)", "test": "binding", "remaining binding [%]": 93}
{"target": "Epidermal growth factor receptor (EGFR, Homo sapiens, UniProt P00533, L861Q)", "test": "cell-free assay", "remaining binding [%]": 100}
{"target": "cGMP-dependent protein kinase 2 (PRKG2, Homo sapiens, UniProt Q13237)", "test": "binding", "remaining binding [%]": 88}
{"target": "Phosphatidylinositol 4,5-bisphosphate 3-kinase catalytic subunit alpha isoform (PIK3CA, Homo sapiens, UniProt P42336, H1047Y)", "test": "binding", "remaining binding [%]": 100}
{"target": "Tyrosine-protein kinase ABL1, phosphorylated (ABL1, Homo sapiens, UniProt P00519, T315I)", "test": "binding", "remaining binding [%]": 84}
{"target": "RAC-alpha serine/threonine-protein kinase (AKT1, Homo sapiens, UniProt P31749)", "test": "binding", "remaining binding [%]": 100}
{"target": "Mitogen-activated protein kinase kinase kinase 14 (MAP3K14, Homo sapiens, UniProt Q99558)", "test": "binding", "remaining binding [%]": 100}
{"target": "Serine/threonine-protein kinase ULK1 (ULK1, Homo sapiens, UniProt O75385)", "test": "binding", "remaining binding [%]": 100}
{"target": "Fibroblast growth factor receptor 2 (FGFR2, Homo sapiens, UniProt P21802)", "test": "cell-free assay", "remaining binding [%]": 79}
{"target": "Epithelial discoidin domain-containing receptor 1 (DDR1, Homo sapiens, UniProt Q08345)", "test": "cell-free assay", "remaining binding [%]": 100}
{"target": "BDNF/NT-3 growth factors receptor (NTRK2, Homo sapiens, UniProt Q16620)", "test": "cell-free assay", "remaining binding [%]": 100}
{"target": "Casein kinase I isoform alpha (CSNK1A1, Homo sapiens, UniProt P48729)", "test": "cell-free assay", "remaining binding [%]": 80}
{"data": "Series 4", "host": "human", "sample": "microsomes or S9", "concentration": "2 µM", "time": "0.5 h"}
{"SMILES": "CC(=O)c1c(NN2CCOCC2)oc(C)cc1=O", "remaining compound [%]": 90.6}
{"SMILES": "O=S(=O)(NCCNCC1(O)CNCCOC1)c1ccc(Cl)cc1 (stereo not shown)", "remaining compound [%]": 94.3}
{"SMILES": "CC1(C)C[C@H](O)[C@@H](n2/c(=N/C#N)[nH]c3ccccc32)c2cccc([N+](=O)[O-])c2O1", "remaining compound [%]": 97}
{"SMILES": "COC(=O)N1CC(C)CN(c2ccc(NC(=O)Nc3cc(C)ccc3OC)cc2)S1(=O)=O (stereo not shown)", "remaining compound [%]": 52}
{"data": "Series 5", "Compound": "CC(C)(C)c1cnc(CSc2cnc(NC(=O)C3CCN(CCCCCSc4cccc5c4CN(C4CCC(=O)NC4=O)C5=O)CC3)s2)o1 (stereo not shown)", "dose": "dose not given"}
{"system": "NSG mice HuT78 xenograft", "setting": "day 4", "tumour volume": "32 mm³ and 7.8 mm³ and 45.6 mm³ and 55.3 mm³"}
{"system": "NSG mouse, HuT78 xenograft", "setting": "subcutaneous, day 8", "tumour volume": "74.4 mm³ and 62.5 mm³ and 21.4 mm³ and 32 mm³"}
{"system": "NSG mouse, HuT78 xenograft", "setting": "subcutaneous, day 2", "tumour volume": "55.3 mm³ and 19.7 mm³ and 45.6 mm³ and 21.4 mm³ and 32 mm³"}
{"data": "Series 6", "SMILES": "c1ccc(Oc2ccc(Nc3c4c(nc5ccccc35)CCC4)cc2)cc1", "organism": "Leishmania donovani", "strain": "DD8", "sample": "promastigotes"}
{"test": "parasite viability, resazurin", "setting": "0.0066 µM", "inhibition": "-1% and -5% and -4%"}
{"test": "parasite viability, resazurin", "setting": "0.0033 µM", "inhibition": "-1% and -2%"}
{"test": "parasite killing", "setting": "3.33 µM, 48 h", "inhibition": "91% and 89% and 96%"}
{"test": "parasite viability, resazurin", "setting": "16.66 µM", "inhibition": "100%"}
{"test": "parasite killing", "setting": "66.66 µM, 48 h", "inhibition": "100%"}
{"data": "Series 7", "cell line": "mouse MPNST tumor cells", "method": "high-content immunofluorescence imaging", "measured": "nuclear SOX9", "concentration": "10 µM", "time": "12 h", "notes": "mean of 2 replicates", "reference": "DMSO control", "reading": "higher = more nuclear SOX9"}
{"SMILES": "Nc1nc(=O)c2c([nH]1)NC[C@@H](CNc1ccc(C(=O)N[C@@H](CCC(=O)O)C(=O)O)cc1)N2C=O", "nuclear SOX9 intensity": "96.8 % of DMSO"}
{"SMILES": "CN1C[C@H](Nc2cnn(C)c(=O)c2Br)C[C@H](c2ccccc2)C1", "nuclear SOX9 intensity": "93.3 % of DMSO"}
{"SMILES": "CCN(CC)Cc1cc(Nc2ccnc3cc(Cl)ccc23)ccc1O", "nuclear SOX9 intensity": "172 % of DMSO"}
